Measured values collected from several papers.
Each line is one published result; not all experiments were run side by side. ± gives the spread as reported.
UniProt Q12769, sequence (whole entry, looked up): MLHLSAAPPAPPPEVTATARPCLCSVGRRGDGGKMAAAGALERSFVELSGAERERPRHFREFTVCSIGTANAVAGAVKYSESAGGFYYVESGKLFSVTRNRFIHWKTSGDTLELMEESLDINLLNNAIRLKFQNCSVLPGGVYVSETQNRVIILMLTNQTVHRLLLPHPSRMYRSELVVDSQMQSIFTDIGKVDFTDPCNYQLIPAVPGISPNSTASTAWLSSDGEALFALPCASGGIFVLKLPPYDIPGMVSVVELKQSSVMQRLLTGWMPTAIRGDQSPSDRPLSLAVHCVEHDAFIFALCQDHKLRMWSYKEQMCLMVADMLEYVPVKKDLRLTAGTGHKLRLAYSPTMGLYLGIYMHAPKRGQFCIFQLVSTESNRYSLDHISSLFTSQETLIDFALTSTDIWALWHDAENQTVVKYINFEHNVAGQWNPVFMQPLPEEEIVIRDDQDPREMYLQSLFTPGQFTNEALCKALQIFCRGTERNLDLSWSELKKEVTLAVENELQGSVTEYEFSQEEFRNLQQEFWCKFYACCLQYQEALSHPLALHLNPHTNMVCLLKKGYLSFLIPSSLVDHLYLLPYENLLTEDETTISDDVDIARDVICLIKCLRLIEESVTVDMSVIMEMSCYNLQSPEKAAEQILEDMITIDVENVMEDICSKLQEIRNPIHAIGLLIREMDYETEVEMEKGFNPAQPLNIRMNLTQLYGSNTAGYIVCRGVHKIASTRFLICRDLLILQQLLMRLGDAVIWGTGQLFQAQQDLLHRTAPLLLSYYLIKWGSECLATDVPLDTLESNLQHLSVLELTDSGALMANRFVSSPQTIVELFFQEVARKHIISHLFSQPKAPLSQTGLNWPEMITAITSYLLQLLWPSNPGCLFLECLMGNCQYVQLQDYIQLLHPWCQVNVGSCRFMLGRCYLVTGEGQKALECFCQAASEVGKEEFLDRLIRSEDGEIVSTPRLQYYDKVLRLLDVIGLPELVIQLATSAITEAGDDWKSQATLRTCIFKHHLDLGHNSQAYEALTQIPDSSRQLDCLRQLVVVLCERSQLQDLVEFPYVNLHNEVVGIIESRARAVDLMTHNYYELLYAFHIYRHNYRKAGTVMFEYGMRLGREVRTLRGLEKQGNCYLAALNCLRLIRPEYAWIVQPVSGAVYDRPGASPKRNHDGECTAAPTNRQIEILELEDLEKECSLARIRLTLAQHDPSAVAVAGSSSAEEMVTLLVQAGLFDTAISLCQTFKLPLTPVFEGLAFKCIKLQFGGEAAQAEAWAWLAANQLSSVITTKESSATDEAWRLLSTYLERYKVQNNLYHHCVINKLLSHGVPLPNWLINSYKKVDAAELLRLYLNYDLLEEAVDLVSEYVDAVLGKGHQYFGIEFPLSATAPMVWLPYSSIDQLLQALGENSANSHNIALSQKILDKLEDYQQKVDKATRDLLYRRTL

| SMILES | target or system | assay | system | setting | scale | quantity | result |
| --- | --- | --- | --- | --- | --- | --- | --- |
| Oc1ccc(C(c2ccc(O)cc2)(C(F)(F)F)C(F)(F)F)cc1 | HepG2 spheroids | annexin V-FITC/PI flow cytometry |  | 0.10 µM, 96 h |  | late apoptotic cells | 34.2 ± 8.11% |
| COc1cc2c(O)c3c(c(-c4ccc5c(c4)OCO5)c2cc1OC)C(=O)OC3 | HeLa |  |  | 24 h |  | CC50 | > 100 µM |
| CC(C)C[C@H](NC(=O)OCc1ccccc1)C(=O)N[C@H](C=O)C[C@@H]1CCCNC1=O | RD | cytotoxicity |  |  |  | CC50 | > 100 µM |
| C[S+](C)[O-] | U138 |  |  | concentration not given, 4 days | reference: mock | lowest significantly cytotoxic concentration | ≥ 1% |
| C[C@H]1CN(c2n[nH]c3nc(N[C@H]4CC[C@H](NS(=O)(=O)CCC(F)(F)F)CC4)ncc23)CCO1 | Nuclear pore complex protein Nup160 (Homo sapiens, UniProt Q12769) | biochemical |  |  |  | IC50 | ≥ 20 µM |
| O=c1ccc2ccccc2o1 | NHEK | cell cycle arrest |  | concentration not given, 1 h |  | chance response | 1.05% |
| N=C(N)NCCC[C@H](NC(=O)CN)C(=O)N[C@@H](Cc1c[nH]c2ccccc12)C(=O)N[C@@H](CCCNC(=N)N)C(=O)N[C@@H](Cc1c[nH]c2ccccc12)C(=O)N[C@@H](Cc1c[nH]c2ccccc12)C(=O)N[C@@H](Cc1c[nH]c2ccccc12)C(=O)N[C@@H](CCCNC(=N)N)C(=O)N[C@@H](Cc1c[nH]c2ccccc12)C(=O)N[C@@H](CCCNC(=N)N)C(=O)N[C@@H](Cc1ccccc1)C(N)=O | PK-15 |  |  |  |  | LC50 | 103 µM |
| Cc1cc(C(C)(C)c2ccc(O)c(C)c2)ccc1O | HepG2 spheroids, dissociated | annexin V-FITC/PI flow cytometry |  | 0.01 µM, 96 h |  | early apoptotic cells | 4.23 ± 1.95% |
| NC(=Nc1ccccc1)NC(=O)c1nc(Cl)c(N)nc1N | Plasmodium falciparum |  | D10 |  |  | IC50 | 7.94 µM |
| CCc1ccc(NC(=O)c2cc3c(=O)n4ccccc4nc3n2C)cc1 | Vero | MTT |  | 6.3 µM, 24 (unit not given) |  | viability | 73.4% |
| O=S(=O)(c1ccc(O)cc1)c1ccc(O)cc1 | HepG2 spheroids | annexin V-FITC/PI flow cytometry |  | 0.10 µM, 96 h |  | necrotic cells | 43.1 ± 4.3% |
| O=c1c(O)c(-c2ccc(O)c(O)c2)oc2cc(O)cc(O)c12 | uninduced SH-SY5Y Aβ-GFP cells | cytotoxicity, MTT |  | 24 h |  | IC50 | 99 µM |
| Cn1cc(C(F)(F)F)nc1-c1ccc(OCC(O)CNCCOc2ccc(O)c(C(N)=O)c2)cc1 (centres unmarked) | Plasmodium falciparum |  | GB4 |  |  | IC50 | 12.6 µM |
| CC(C)[C@H](NC(=O)[C@H](CCCNC(=N)N)NC(=O)[C@H](Cc1c[nH]c2ccccc12)NC(=O)[C@H](CCCNC(=N)N)NC(=O)[C@H](Cc1c[nH]c2ccccc12)NC(=O)[C@H](Cc1c[nH]c2ccccc12)NC(=O)[C@H](Cc1c[nH]c2ccccc12)NC(=O)[C@H](CCCNC(=N)N)NC(=O)[C@H](Cc1c[nH]c2ccccc12)NC(=O)[C@@H](N)CCCNC(=N)N)C(N)=O | PK-15 |  |  |  |  | LC50 | > 512 µM |

Repeated from above:
| SMILES | target or system | assay | system | setting | scale | quantity | result |
| --- | --- | --- | --- | --- | --- | --- | --- |
| Oc1ccc(C(c2ccc(O)cc2)(C(F)(F)F)C(F)(F)F)cc1 | HepG2 spheroids | annexin V-FITC/PI flow cytometry |  | 0.10 µM, 96 h |  | late apoptotic cells | 34.2 ± 8.11% |
